Published values gathered from unrelated publications.
Every numbered part comes from another study and shows a few of its results, in no order.
UniProt P15056, sequence (whole entry, looked up): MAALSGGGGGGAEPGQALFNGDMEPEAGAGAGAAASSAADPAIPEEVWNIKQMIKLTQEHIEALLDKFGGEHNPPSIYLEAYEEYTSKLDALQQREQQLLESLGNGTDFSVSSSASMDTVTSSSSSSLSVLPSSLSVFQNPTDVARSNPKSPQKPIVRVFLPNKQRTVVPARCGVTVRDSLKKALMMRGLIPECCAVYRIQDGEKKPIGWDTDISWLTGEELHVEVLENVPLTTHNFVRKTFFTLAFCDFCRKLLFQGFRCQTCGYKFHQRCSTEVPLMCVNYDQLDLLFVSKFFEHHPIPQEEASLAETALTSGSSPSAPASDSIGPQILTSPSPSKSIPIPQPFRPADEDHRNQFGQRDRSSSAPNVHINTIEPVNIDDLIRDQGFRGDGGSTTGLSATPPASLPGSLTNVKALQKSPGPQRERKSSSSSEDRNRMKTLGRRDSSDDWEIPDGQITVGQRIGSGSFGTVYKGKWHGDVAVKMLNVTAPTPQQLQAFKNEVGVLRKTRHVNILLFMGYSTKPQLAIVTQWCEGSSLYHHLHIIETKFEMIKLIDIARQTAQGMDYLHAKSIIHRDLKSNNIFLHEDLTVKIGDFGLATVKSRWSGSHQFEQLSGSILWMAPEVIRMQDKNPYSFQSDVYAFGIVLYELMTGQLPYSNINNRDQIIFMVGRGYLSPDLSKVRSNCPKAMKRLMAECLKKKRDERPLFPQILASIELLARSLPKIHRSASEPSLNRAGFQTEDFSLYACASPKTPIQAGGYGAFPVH
UniProt P35916, sequence (whole entry, unmodified, looked up): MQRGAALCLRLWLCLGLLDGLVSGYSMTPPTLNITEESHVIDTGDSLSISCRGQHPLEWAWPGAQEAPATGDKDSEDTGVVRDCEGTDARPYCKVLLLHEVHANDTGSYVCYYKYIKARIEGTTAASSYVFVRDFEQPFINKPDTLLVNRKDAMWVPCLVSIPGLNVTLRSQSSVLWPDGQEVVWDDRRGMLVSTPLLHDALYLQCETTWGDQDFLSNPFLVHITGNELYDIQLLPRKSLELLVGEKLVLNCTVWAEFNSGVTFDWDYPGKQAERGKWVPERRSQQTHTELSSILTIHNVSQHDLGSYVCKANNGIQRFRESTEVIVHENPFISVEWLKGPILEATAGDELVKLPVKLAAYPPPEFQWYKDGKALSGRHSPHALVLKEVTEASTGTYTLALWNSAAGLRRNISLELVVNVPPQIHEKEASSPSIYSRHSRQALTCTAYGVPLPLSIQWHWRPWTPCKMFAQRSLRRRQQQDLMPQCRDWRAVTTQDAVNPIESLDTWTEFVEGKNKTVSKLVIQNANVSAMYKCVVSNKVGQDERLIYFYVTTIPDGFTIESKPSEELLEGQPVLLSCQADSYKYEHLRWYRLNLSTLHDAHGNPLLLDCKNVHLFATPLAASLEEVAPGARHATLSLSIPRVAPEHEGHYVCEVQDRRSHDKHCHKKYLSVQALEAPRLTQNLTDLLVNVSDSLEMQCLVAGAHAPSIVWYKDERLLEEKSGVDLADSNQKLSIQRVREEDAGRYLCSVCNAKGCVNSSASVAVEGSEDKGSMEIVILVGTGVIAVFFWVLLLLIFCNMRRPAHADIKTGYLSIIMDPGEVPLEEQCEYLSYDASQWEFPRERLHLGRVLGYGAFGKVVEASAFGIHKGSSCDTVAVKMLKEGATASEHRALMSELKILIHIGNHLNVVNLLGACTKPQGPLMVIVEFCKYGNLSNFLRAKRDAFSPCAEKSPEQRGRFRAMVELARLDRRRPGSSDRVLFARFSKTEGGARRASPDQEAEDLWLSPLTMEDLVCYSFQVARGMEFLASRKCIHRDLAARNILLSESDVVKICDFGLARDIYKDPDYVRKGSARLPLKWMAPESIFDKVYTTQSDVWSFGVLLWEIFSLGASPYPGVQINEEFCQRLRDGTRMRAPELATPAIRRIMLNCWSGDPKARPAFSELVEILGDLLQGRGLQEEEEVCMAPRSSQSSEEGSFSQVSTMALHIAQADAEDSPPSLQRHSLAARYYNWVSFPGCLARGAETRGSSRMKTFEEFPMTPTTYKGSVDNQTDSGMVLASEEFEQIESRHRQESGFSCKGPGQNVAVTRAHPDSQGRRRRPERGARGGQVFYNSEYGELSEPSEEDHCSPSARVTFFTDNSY
UniProt P11362, sequence (whole entry, looked up): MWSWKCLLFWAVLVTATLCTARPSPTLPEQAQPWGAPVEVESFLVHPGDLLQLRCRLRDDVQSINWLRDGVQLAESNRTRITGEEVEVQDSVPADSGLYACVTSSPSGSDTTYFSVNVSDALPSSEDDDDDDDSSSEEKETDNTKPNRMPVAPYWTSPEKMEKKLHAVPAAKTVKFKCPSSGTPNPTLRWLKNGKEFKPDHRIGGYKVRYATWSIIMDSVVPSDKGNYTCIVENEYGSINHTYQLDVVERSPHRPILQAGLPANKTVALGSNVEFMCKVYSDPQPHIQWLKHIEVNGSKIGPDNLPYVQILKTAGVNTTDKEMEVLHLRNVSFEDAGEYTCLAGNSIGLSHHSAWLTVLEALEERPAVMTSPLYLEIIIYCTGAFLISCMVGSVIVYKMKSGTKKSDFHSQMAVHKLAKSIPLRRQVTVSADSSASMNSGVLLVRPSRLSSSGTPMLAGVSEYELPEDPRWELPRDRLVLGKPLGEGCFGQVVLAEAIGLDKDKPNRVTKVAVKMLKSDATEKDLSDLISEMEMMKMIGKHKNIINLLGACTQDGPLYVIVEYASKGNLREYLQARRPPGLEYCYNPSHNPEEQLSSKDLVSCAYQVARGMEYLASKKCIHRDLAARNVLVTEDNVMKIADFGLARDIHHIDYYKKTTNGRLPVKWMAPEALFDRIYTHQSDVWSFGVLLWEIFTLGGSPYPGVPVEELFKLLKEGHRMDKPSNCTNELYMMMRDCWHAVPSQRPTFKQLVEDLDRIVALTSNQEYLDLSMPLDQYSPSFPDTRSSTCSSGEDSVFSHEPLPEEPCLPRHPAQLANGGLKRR

Study 1
SMILES: COc1cc(/C=C(\C#N)C(=O)c2ccc(O)c(O)c2)cc(I)c1O
Mode: inhibitor
Concentration: 5 µM
target | assay | test system | setting | how to read | log2 fold change
AKT1 (Homo sapiens, UniProt P31749) | cell-based kinome profiling | human cells |  | reference: vehicle control | 0.479
FLT3 ITD human | kinase-CDC37 interaction | human cells |  | reference: vehicle | 0.958
Cyclin-dependent kinase 14, with CDC37 (CDK14, Homo sapiens, UniProt O94921) |  | human cells |  | reference: vehicle | 0.145
MYLK2 (Homo sapiens, UniProt Q9H1R3) | cell-based kinome screen | human cells |  | reference: untreated control | -0.03
GRK2 (Homo sapiens, UniProt P25098) | cell-based kinome screen | human cells |  | reference: vehicle | 0.049
FLT4 (Homo sapiens, UniProt P35916, P1114L) | cell-based translocation | human cells | hereditary lymphedema type 1A variant | reference: vehicle | 0.921
KSR2 (Homo sapiens, UniProt Q6VAB6) | cell-based kinome screen | human cells |  | reference: untreated control | 0.607 log2
FGFR1 (Homo sapiens, UniProt P11362) | cell-based translocation | human cells |  | reference: vehicle | -0.1
kinase–CDC37 interaction | kinase–CDC37 binding | human cells | oncogenic MSN-ALK fusion | reference: vehicle | -0.075
IRAK2 (Homo sapiens, UniProt O43187) | cell-based kinome screen | human cells |  | reference: vehicle | 0.63
BRAF (Homo sapiens, UniProt P15056) | kinase-CDC37 interaction | human cells |  | reference: vehicle | -0.27
Tyrosine-protein kinase Fgr, with CDC37 (FGR, Homo sapiens, UniProt P09769) | cell-based kinome screen | human cells |  | reference: vehicle | 0.73

Study 2
Target: Calcium/calmodulin-dependent protein kinase type II subunit alpha (CAMK2A, Homo sapiens, UniProt Q9UQM7)
UniProt Q9UQM7, sequence (whole entry, looked up): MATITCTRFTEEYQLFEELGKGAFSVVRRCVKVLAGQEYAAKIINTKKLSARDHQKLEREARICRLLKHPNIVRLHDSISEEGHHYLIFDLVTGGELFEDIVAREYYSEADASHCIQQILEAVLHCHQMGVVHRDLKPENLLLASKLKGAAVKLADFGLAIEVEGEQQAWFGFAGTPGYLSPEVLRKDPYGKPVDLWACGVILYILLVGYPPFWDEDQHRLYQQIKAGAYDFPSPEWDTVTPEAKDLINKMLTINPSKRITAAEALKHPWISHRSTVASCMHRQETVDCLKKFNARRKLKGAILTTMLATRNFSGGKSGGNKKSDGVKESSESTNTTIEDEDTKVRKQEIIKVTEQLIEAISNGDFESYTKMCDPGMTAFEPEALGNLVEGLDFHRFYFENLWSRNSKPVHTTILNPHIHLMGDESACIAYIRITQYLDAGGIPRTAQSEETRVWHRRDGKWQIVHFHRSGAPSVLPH
Effect on: enzyme activity
Mode: inhibitor
Concentration: 10 µM
Structure (SMILES) | inhibition [%]
CC(C)[N+](C)(CCOC(=O)C1c2ccccc2Oc2ccccc21)C(C)C | 2
O=C(O)[C@H]1O[C@@H](Oc2cc(-c3cc(=O)c4c(O)cc(O)cc4o3)ccc2O)[C@H](O)[C@@H](O)[C@@H]1O | -27
CCCC[C@H](CC)COC(=O)/C=C/c1ccc(OC)cc1 | 11
COc1ccc2c(c1)c(CC(=O)OCC(=O)O)c(C)n2C(=O)c1ccc(Cl)cc1 | 3
O=C(O)CNC(=O)Cc1ccccc1 | -21
COc1cc2oc(-c3ccc(O)cc3)cc(=O)c2c(O)c1[C@@H]1O[C@H](CO)[C@@H](O)[C@H](O)[C@H]1O[C@@H]1O[C@H](CO)[C@@H](O)[C@H](O)[C@H]1O | 12
NC(=O)c1[nH]cnc1N | -20
O=C1c2c(O)c(=O)ccn2N([C@@H]2c3ccccc3SCc3c2ccc(F)c3F)[C@@H]2COCCN12 | 3
COC(=O)[C@@]12OC[C@]34[C@H]([C@@H](O)[C@@H]1O)[C@@]1(C)CC(=O)C(O)=C(C)[C@@H]1C[C@H]3OC(=O)[C@H](OC(=O)C=C(C)C)[C@@H]24 | -19
CCCCC/C=C\C/C=C\CCCCCCCC(=O)NCc1ccccc1 | -6
O=c1n(CCCN2CCN(c3cccc(Cl)c3)CC2)nc2ccccn12 | -7
C[C@@H](O)[C@@H]1NC(=O)[C@@H](N)C[C@@H](O)[C@@H](O)NC(=O)[C@@H]2[C@@H](O)[C@@H](C)CN2C(=O)[C@H]([C@H](O)CC(N)=O)NC(=O)[C@H]([C@H](O)[C@@H](O)c2ccc(O)c(OS(=O)(=O)O)c2)NC(=O)[C@@H]2C[C@@H](O)CN2C1=O | -29
CCCc1nc(C)c2c(O)nc(-c3cc(S(=O)(=O)N4CCN(CC)CC4)ccc3OCC)nn12 | -8

Study 3
Target: Mitogen-activated protein kinase kinase kinase kinase 4 (MAP4K4, Homo sapiens, UniProt O95819)
UniProt O95819, sequence (whole entry, looked up): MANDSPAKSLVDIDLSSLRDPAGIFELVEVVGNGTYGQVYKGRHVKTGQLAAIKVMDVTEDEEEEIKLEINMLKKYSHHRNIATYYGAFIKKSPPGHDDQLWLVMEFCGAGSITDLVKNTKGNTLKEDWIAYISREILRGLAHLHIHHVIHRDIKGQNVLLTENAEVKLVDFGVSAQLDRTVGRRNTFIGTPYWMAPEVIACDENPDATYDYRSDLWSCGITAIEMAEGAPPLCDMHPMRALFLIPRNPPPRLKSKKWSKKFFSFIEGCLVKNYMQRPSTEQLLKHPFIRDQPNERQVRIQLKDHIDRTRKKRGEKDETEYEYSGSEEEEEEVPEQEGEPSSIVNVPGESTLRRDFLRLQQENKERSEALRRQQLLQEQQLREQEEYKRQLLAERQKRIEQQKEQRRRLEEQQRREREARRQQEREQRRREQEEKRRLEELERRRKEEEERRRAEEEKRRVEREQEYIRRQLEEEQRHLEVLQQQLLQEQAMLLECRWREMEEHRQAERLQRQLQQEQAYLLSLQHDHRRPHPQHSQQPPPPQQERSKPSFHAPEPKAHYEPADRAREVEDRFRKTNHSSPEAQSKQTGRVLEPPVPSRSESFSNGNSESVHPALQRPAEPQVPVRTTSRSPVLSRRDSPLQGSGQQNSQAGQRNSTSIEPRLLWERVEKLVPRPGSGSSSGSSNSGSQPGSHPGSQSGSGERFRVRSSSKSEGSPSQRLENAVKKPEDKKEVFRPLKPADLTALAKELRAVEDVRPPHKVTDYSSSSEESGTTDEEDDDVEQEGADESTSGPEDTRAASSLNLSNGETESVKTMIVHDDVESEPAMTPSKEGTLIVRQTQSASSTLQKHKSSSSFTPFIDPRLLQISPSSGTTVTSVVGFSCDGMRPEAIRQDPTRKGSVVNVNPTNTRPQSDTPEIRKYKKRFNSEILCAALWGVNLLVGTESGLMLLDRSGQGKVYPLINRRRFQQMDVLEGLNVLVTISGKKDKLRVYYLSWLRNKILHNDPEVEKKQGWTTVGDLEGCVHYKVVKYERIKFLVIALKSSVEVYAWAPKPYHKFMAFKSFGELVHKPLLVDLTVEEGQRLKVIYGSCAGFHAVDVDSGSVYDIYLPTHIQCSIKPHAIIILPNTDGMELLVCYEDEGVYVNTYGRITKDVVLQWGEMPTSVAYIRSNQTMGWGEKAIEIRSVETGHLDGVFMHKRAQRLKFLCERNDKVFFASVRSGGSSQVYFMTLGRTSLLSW
Effect on: enzyme activity
Mode: inhibitor
Concentration: 0.5 µM
Reference: control
Structure (SMILES) | remaining activity [%]
Nc1[nH]nc2nc3ccccc3nc12 | 76.2
COc1cc2ncnc(Nc3ccc(F)c(Cl)c3)c2cc1OCCCN1CCOCC1 | 97.8
CN(C)c1ccc(C=C2C(=O)Nc3ccccc32)cc1 | 74.5
CO[C@H]1C[C@@H]2CC[C@@H](C)[C@@](O)(O2)C(=O)C(=O)N2CCCC[C@H]2C(=O)O[C@H]([C@H](C)C[C@@H]2CC[C@@H](O)[C@H](OC)C2)CC(=O)[C@H](C)/C=C(\C)[C@@H](O)[C@@H](OC)C(=O)[C@H](C)C[C@H](C)/C=C/C=C/C=C/1C | 87.7
N#CC(C#N)=C(N)/C(C#N)=C/c1ccc(O)cc1 | 91.2
Cc1ccc(NC(=O)c2ccc(CN3CCN(C)CC3)cc2)cc1Nc1nc(-c2cccnc2)cs1 | 72.2
Cc1cccc(-c2[nH]c(C(C)(C)C)nc2-c2ccc3c(c2)OCO3)n1 | 86.9
Cn1c2ccccc2c2c3c(c4c5ccccc5n(CCC#N)c4c21)CNC3=O | 0.433
COc1cc2nccc(Oc3ccc(NC(=S)NC(=O)c4ccccc4C)cc3)c2cc1OC | 87.8
NCCNc1ncc(C(N)=O)c(Nc2cccc(C(F)(F)F)c2)n1 | 48.4
O=C(CCCc1ccc(-c2ccccc2F)cc1)Nc1ccc(O)cc1 | 92.9
O=c1c2ccccc2[nH]c(=S)n1CCN1CCC(=C(c2ccc(F)cc2)c2ccc(F)cc2)CC1 | 99.8
CC(C)[C@H](CO)Nc1nc(Nc2cc(N)cc(Cl)c2)c2ncn(C(C)C)c2n1 | 86.1
COc1cc2ncnc(Nc3ccc(Oc4ccccc4)cc3)c2cc1OC | 90.5
C#Cc1cccc(Nc2ncnc3cc(OCCOC)c(OCCOC)cc23)c1 | 76.5

Study 4
SMILES: COc1ccc(-c2c(Nc3ccccn3)[nH]c3c(C4=CCCCC4)c(-c4ccccc4)nn3c2=O)cc1
Host: human cancer patients
Sample: plasma
Route: oral
Notes: median, cycle 1 day 15
Reference: multiple over single dose
dose | Cmax accumulation ratio
200 mg QD | 5.21
400 mg QD | 3.25
50 mg QD | 3.04

A few entries again (study 1):
target | assay | test system | setting | how to read | log2 fold change
FLT4 (Homo sapiens, UniProt P35916, P1114L) | cell-based translocation | human cells | hereditary lymphedema type 1A variant | reference: vehicle | 0.921
KSR2 (Homo sapiens, UniProt Q6VAB6) | cell-based kinome screen | human cells |  | reference: untreated control | 0.607 log2
FGFR1 (Homo sapiens, UniProt P11362) | cell-based translocation | human cells |  | reference: vehicle | -0.1
kinase–CDC37 interaction | kinase–CDC37 binding | human cells | oncogenic MSN-ALK fusion | reference: vehicle | -0.075
IRAK2 (Homo sapiens, UniProt O43187) | cell-based kinome screen | human cells |  | reference: vehicle | 0.63
